Results of several laboratories.
Compare with care: the assays were run in different laboratories. Values joined by “and” are separate records of one study, mostly repeats; a detail may differ. Numbers after ± are the reported error.
POLB: DNA polymerase beta (POLB, Homo sapiens, UniProt P06746)
CXCL8: Interleukin-8 (CXCL8, Homo sapiens, UniProt P10145)
UniProt P10145, sequence (whole entry, looked up): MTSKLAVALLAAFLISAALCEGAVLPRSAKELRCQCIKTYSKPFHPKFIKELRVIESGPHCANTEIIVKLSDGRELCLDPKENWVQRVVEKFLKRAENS
POLB I260M: DNA polymerase beta (POLB, Homo sapiens, UniProt P06746, I260M)
UniProt P63073, sequence (whole entry, looked up): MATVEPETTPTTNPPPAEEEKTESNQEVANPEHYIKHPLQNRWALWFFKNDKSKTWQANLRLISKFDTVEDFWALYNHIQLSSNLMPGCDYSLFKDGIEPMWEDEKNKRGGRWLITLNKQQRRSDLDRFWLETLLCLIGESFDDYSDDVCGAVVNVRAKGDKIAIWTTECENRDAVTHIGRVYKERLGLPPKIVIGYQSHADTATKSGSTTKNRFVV
UniProt P22629, sequence (whole entry, looked up): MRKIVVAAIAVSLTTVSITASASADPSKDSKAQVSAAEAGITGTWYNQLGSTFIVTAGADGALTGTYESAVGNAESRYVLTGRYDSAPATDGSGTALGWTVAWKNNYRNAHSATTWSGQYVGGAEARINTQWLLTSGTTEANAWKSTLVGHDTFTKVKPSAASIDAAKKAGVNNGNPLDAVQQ
UniProt O00214, sequence (whole entry, looked up): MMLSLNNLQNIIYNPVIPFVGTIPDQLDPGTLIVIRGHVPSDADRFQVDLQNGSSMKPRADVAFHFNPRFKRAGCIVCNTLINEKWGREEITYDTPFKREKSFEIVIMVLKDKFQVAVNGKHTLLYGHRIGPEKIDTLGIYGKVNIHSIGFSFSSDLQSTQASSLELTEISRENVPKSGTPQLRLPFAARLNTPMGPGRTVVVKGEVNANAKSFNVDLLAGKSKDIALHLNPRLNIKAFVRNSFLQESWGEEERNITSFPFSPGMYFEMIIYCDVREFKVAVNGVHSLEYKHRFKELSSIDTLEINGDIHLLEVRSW
UniProt Q92793, sequence (whole entry, looked up): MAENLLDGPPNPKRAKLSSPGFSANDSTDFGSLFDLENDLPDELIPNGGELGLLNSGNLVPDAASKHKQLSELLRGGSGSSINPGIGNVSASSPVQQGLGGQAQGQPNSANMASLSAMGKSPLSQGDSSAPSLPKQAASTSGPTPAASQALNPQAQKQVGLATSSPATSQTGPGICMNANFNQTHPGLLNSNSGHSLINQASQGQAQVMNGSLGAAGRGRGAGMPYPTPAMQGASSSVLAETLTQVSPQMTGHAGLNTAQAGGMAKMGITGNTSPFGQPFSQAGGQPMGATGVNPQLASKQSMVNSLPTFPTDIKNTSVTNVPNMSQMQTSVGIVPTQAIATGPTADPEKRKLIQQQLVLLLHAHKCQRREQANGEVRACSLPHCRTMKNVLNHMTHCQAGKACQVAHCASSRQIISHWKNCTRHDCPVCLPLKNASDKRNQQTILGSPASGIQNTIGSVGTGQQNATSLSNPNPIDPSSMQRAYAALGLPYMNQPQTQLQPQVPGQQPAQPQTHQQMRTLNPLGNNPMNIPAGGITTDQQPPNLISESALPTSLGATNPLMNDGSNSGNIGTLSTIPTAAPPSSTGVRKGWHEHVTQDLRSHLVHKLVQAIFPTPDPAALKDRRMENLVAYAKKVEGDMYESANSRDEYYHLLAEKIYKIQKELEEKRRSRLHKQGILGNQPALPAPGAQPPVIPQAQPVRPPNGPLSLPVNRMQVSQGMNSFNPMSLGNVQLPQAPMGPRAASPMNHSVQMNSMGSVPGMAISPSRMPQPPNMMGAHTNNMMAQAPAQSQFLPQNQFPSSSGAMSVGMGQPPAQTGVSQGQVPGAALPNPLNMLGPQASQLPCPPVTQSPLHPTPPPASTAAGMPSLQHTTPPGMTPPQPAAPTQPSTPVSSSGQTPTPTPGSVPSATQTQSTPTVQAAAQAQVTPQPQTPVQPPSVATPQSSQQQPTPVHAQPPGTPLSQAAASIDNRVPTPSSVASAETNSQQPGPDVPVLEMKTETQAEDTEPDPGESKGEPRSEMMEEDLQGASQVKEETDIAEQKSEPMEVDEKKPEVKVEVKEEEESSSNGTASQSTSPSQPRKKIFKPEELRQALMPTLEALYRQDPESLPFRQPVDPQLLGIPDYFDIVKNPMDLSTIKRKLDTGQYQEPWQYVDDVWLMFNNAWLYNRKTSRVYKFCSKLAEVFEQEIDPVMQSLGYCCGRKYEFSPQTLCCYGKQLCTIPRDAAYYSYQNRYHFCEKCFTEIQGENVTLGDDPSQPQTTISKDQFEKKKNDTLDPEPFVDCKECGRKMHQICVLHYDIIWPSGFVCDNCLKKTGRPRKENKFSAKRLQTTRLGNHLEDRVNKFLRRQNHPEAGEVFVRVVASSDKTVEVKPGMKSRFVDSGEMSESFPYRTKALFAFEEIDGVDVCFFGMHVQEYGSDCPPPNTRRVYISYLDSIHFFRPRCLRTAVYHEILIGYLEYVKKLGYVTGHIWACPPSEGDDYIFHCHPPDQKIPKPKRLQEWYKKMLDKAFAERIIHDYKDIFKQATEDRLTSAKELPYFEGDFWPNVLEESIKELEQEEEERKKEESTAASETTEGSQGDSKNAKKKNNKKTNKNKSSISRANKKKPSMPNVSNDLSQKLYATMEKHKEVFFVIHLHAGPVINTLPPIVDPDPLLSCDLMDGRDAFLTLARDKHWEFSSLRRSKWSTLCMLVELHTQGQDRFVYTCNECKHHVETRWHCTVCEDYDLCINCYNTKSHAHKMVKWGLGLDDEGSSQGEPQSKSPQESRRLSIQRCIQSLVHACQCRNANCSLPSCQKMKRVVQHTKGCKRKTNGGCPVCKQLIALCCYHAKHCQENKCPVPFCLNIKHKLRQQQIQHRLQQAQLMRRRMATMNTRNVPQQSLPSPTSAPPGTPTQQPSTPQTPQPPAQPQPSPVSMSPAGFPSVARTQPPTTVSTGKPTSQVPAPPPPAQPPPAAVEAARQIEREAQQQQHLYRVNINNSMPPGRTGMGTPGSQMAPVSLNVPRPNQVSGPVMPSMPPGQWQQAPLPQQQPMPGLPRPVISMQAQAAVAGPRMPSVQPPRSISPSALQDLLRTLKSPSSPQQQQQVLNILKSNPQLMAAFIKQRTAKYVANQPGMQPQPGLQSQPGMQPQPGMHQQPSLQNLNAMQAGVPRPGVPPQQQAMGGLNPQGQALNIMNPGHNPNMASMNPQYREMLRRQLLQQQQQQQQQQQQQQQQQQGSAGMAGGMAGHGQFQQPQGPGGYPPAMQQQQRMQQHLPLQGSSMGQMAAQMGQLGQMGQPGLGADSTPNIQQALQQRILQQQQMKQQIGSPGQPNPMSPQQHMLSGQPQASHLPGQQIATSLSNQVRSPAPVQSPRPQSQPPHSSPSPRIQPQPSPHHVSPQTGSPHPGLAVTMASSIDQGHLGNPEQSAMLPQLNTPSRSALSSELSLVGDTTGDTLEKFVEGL
UniProt Q96301, sequence (whole entry, looked up): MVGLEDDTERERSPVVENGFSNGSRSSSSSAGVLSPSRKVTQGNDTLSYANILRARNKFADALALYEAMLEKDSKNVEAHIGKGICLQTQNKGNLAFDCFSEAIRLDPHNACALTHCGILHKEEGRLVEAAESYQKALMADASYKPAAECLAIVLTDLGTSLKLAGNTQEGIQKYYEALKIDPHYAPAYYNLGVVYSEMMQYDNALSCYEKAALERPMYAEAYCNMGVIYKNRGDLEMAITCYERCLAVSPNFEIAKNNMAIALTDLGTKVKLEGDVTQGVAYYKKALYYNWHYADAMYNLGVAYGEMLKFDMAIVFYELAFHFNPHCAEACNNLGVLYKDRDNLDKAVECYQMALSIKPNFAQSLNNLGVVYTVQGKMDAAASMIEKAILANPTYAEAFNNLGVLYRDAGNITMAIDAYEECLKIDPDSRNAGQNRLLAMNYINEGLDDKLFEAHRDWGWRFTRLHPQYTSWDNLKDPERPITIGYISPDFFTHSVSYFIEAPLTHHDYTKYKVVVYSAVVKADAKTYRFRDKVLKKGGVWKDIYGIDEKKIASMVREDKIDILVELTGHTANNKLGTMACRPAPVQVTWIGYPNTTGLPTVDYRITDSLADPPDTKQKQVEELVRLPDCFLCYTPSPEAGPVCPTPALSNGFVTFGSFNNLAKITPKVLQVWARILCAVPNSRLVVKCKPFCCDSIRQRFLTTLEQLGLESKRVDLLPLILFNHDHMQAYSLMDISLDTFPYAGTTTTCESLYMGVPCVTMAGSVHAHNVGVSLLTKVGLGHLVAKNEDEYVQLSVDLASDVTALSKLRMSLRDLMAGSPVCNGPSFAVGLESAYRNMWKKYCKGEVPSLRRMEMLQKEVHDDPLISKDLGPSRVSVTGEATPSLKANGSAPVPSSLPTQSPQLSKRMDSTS
UniProt P28482, sequence (whole entry, looked up): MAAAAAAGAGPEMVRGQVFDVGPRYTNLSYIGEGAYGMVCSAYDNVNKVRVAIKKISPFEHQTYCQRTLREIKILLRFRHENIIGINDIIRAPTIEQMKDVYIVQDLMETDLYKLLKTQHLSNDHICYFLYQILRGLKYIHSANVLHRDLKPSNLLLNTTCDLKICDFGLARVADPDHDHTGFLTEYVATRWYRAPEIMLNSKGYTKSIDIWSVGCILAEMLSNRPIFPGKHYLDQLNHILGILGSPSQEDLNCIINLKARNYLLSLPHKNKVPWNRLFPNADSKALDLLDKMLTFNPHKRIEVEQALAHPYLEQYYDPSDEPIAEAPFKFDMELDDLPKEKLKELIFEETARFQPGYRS
UniProt O95931, sequence (whole entry, looked up): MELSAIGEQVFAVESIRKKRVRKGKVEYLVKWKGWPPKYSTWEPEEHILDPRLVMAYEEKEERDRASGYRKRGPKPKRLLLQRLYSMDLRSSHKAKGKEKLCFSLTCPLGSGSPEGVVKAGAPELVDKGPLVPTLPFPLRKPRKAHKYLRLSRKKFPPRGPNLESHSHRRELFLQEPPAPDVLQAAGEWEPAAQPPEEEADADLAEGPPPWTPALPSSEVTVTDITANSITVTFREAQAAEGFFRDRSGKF

C[n+]1cn([C@@H]2O[C@H](COP(=O)([S-])OP(=O)(O)OP(=O)(O)OC[C@H]3O[C@@H](n4cnc5c(NCCCCCCN)ncnc54)[C@H](O)[C@@H]3O)[C@@H](O)[C@H]2O)c2nc(N)nc(O)c21 (mixture of isomers) — Kd (Eukaryotic translation initiation factor 4E (Eif4e, Mus musculus, UniProt P63073); cap analogue binding, pyrene fluorescence competition; 20 °C): 0.433 µM and 0.43 µM
Cc1cn(C2CC(O)C(COP(=O)(O)OP(=O)(O)C(Br)P(=O)(O)O)O2)c(=O)[nH]c1=O (mixture of isomers) — Kd (POLB; dNTP binding, substrate, single-turnover kinetics; single-nucleotide gapped DNA; 37 °C, wild type, correct incorporation, together with: dTTP opposite template A): 9.8 ± 2.1 µM
CS[C@@H]1O[C@H](COS(=O)(=O)O)[C@@H](OS(=O)(=O)O)[C@H](O[C@@H]2O[C@H](C(=O)O)[C@@H](O[C@@H]3O[C@H](COS(=O)(=O)O)[C@@H](OS(=O)(=O)O)[C@H](O[C@@H]4O[C@H](C(=O)O)[C@@H](OS(=O)(=O)O)[C@H](OS(=O)(=O)O)[C@H]4OS(=O)(=O)O)[C@H]3NC(C)=O)[C@H](OS(=O)(=O)O)[C@H]2OS(=O)(=O)O)[C@H]1NC(C)=O — Kd (CXCL8; ligand displacement, FP): 7.87 µM
CC[C@H](C)[C@H](NC(=O)[C@H](CC(C)C)NC(=O)[C@H](CCCNC(=N)N)NC(=O)c1ccc(CN2CCN(C)CC2)cc1)C(=O)N[C@@H](Cc1ccccc1)C(N)=O — Kd (Cyclin-A2 (CCNA2, Homo sapiens, UniProt P20248); binding, tryptophan fluorescence titration; pH 8.0, 25 °C, expressed without chaperones): 3.21 µM
C[n+]1cc(NC(=O)c2ccc3ccc4ccc(C(=O)Nc5cc6ccccc6[n+](C)c5)nc4c3n2)cc2ccccc21 — Kd (MYC snap-back G4 DNA; binding, native ESI-MS; 100 mM trimethylammonium acetate; 1 mM KCl): 0.57 µM
CC[C@H](C)[C@H](NC(=O)[C@H](CC(=O)O)NC(=O)[C@H](CO)NC(C)=O)C(=O)N[C@@H](CSCc1ccccc1)C(=O)N[C@@H](CC(=O)O)C(=O)N[C@@H](Cc1ccccc1C)C(=O)N[C@H](C(=O)N[C@@H](CC(C)C)C(=O)N[C@@H](CCCCN)C(=O)N[C@@H](CC(N)=O)C(=O)N[C@@H](Cc1ccc(O)cc1)C(=O)N1CCC[C@H]1C(=O)O)[C@@H](C)CC — Kd (CREB-binding protein, KIX domain (CREBBP, Homo sapiens, UniProt Q92793); binding, fluorescence polarisation): 3.3 ± 0.5 µM
CC(P(=O)(O)O)P(=O)(O)OP(=O)(O)OCC1OC(n2cnc3c(=O)[nH]c(N)nc32)CC1O (mixture of isomers) — Kd (POLB I260M; nucleotide binding, substrate, single turnover kinetics; 37 °C, dG misincorporation opposite A): 236 ± 107 µM
CC[C@H](C)[C@@H]1NC(=O)[C@H](CCC(N)=O)NC(=O)CNC(=O)[C@H]([C@@H](C)O)NC(=O)[C@H](Cc2c[nH]c3ccccc23)NC(=O)[C@H](CCCNC(=N)N)NC(=O)[C@H](C)NC(=O)[C@H](C(C)C)NC(=O)[C@H](CCCNC(=N)N)NC(=O)[C@@H]2CCCN2C(=O)[C@H](CCCNC(=N)N)NC(=O)[C@@H](Cc2c[nH]c3ccccc23)NC(=O)CSC[C@@H](C(=O)N[C@@H](CO)C(N)=O)NC(=O)[C@H](Cc2ccc(O)cc2)NC(=O)[C@H]([C@@H](C)CC)NC1=O — Kd (Plexin-B1 (PLXNB1, Homo sapiens, UniProt O43157); SPR): 0.0028 µM
CC(=O)N[C@@H]1[C@@H](O[C@@H]2O[C@H](C(=O)O)[C@@H](O[C@@H]3O[C@H](CO)[C@@H](OS(=O)(=O)O)[C@H](O[C@@H]4O[C@H](C(=O)O)[C@@H](OS(=O)(=O)O)[C@H](OS(=O)(=O)O)[C@H]4OS(=O)(=O)O)[C@H]3NC(C)=O)[C@H](OS(=O)(=O)O)[C@H]2OS(=O)(=O)O)[C@H](OS(=O)(=O)O)[C@@H](CO)O[C@H]1N=[N+]=[N-] — Kd (CXCL8; ligand displacement, FP): 15.6 µM
CC[C@H](C)[C@@H]1NC(=O)[C@H](C)NC(=O)[C@H](C)NC(=O)[C@H]([C@@H](C)O)NC(=O)[C@H](Cc2ccccc2)NC(=O)[C@@H]2CSSC[C@@H]3NC(=O)[C@H](C(C)C)NC(=O)[C@H](CCCCN)NC(=O)[C@H](CO)NC(=O)[C@H](CCCCN)NC(=O)[C@@H]4CSSC[C@H](NC(=O)[C@H](CO)NC(=O)[C@H](CCC(=O)O)NC(=O)CNC(=O)[C@H](CSSC[C@H](NC(=O)CNC1=O)C(=O)N[C@@H](CO)C(=O)N4)NC(=O)[C@@H]1CCCN1C(=O)[C@H](Cc1ccccc1)NC(=O)CNC(=O)[C@H](CC(N)=O)NC(=O)[C@H](C)NC(=O)[C@H](Cc1ccc(O)cc1)NC3=O)C(=O)N[C@@H](C(C)C)C(=O)N[C@@H](Cc1ccc(O)cc1)C(=O)N[C@@H](CC(C)C)C(=O)N1CCC[C@H]1C(=O)N2 — Kd (POPC/POPE lipid membrane; membrane binding, surface plasmon resonance; POPC/POPE 80:20 vesicles; pH 7.4): 5.29 ± 0.32 µM
N=C1N[C@H]2[C@H](CS[C@H]2CCCCC(=O)NCCNC(=O)c2cc3cc(F)c(O)c(F)c3oc2=O)N1 — Kd (Streptavidin (Streptomyces avidinii, UniProt P22629); binding; pH 7.4): 2.73 µM
CC[C@H](C)[C@@H]1NC(=O)[C@H](C)NC(=O)[C@H](C)NC(=O)[C@H]([C@@H](C)O)NC(=O)[C@H](Cc2ccccc2)NC(=O)[C@@H]2CSSC[C@@H]3NC(=O)[C@H](C(C)C)NC(=O)[C@H](CCCCN)NC(=O)[C@H](CO)NC(=O)[C@H](CCCCN)NC(=O)[C@@H]4CSSC[C@H](NC(=O)[C@H](CO)NC(=O)[C@H](CCC(=O)O)NC(=O)CNC(=O)[C@H](CSSC[C@H](NC(=O)CNC1=O)C(=O)N[C@@H](CO)C(=O)N4)NC(=O)[C@@H]1CCCN1C(=O)[C@H](Cc1ccccc1)NC(=O)CNC(=O)[C@H](CC(N)=O)NC(=O)[C@H](CCCCN)NC(=O)[C@H](Cc1ccc(O)cc1)NC3=O)C(=O)N[C@@H](C(C)C)C(=O)N[C@@H](Cc1ccc(O)cc1)C(=O)N[C@@H]([C@@H](C)CC)C(=O)N1CCC[C@H]1C(=O)N2 — Kd (POPC/POPE lipid membrane; membrane binding, surface plasmon resonance; POPC/POPE 80:20 vesicles; pH 7.4): 5.88 ± 0.07 µM
Cc1cn(C2CC(O)C(COP(=O)(O)OP(=O)(O)C(Cl)P(=O)(O)O)O2)c(=O)[nH]c1=O (mixture of isomers) — Kd (POLB; dNTP binding, substrate, single-turnover kinetics; single-nucleotide gapped DNA; 37 °C, wild type, correct incorporation, together with: dTTP opposite template A): 30.3 ± 7.3 µM
OC[C@H]1Oc2c(I)c(I)cc3c2[C@@H](OC3)[C@H]1O — Kd (Galectin-8 (LGALS8, Homo sapiens, UniProt O00214); cell-free assay, FP): 2100 µM
Nc1nc2c(ncn2C2CC(O)C(COP(=O)(O)OP(=O)(O)C(F)(Cl)P(=O)(O)O)O2)c(=O)[nH]1 (mixture of isomers) — Kd (POLB I260M; nucleotide binding, substrate, single turnover kinetics; 37 °C, dG misincorporation opposite A): 886 ± 220 µM
COC1CCC(N(C(=O)C2CCC(C)CC2)c2cc(C3=CCCCC3)sc2C(=O)O)CC1 (stereo not drawn) — Kd (Probable UDP-N-acetylglucosamine--peptide N-acetylglucosaminyltransferase SPINDLY (SPY, Arabidopsis thaliana, UniProt Q96301); binding, biolayer interferometry): 37 µM
Brc1ccc([C@H]2CN3CCSC3=N2)cc1 — Kd (Epas1, PAS-B domain (Mus musculus, UniProt P97481); binding, microscale thermophoresis): ~0.246 µM
Nc1nc2c(ncn2[C@H]2C[C@H](O)[C@@H](COP(=O)(O)OP(=O)(O)[C@H](Cl)P(=O)(O)O)O2)c(=O)[nH]1 — Kd (POLB; substrate, quench-flow kinetics; pH 8.0, 37 °C, incorporation opposite C in gapped DNA): 3.2 ± 0.8 µM
O=C(NCCC#Cc1cc(Nc2nccc(-c3ccn([C@H](CO)c4ccc(Cl)c(F)c4)c(=O)c3)n2)ccn1)OC1CC/C=C/CCC1 (stereo partly drawn) — Kd (Mitogen-activated protein kinase 1 (MAPK1, Homo sapiens, UniProt P28482); binding, SPR): 0.046 µM
C[C@H](NC(=O)[C@H](Cc1ccccc1)NC(=O)c1ccc(C(F)(F)F)cc1)C(=O)N[C@H](C(=O)N[C@@H](CCCC[N+](C)(C)C)C(=O)N[C@@H](CO)C(N)=O)C1CCCC1 — Kd (Chromobox protein homolog 7 (Homo sapiens, UniProt O95931); binding, ITC; pH 8): 0.22 µM
CC(=O)c1cc(O)c(=O)c(O)cc1C — Kd (Mg2+; binding, absorption spectroscopy; low-affinity site): 30000 µM

For quick reference, copied from above:
C[n+]1cc(NC(=O)c2ccc3ccc4ccc(C(=O)Nc5cc6ccccc6[n+](C)c5)nc4c3n2)cc2ccccc21 — Kd (MYC snap-back G4 DNA; binding, native ESI-MS; 100 mM trimethylammonium acetate; 1 mM KCl): 0.57 µM
